# Assay results of several laboratories.
# Protocols differ between the studies behind these lines. Several values in a cell are separate wells, animals, samples, runs or records. ± gives the spread as reported.
SMILES,test,system,setting,fraction unbound
CC(C)NCC(O)COc1cccc2ccccc12 (stereo not drawn),rapid equilibrium dialysis,rat plasma,"10 µM, 4 h, 37 °C",0.153
c1cc(-c2ccc3ncnc(Nc4ncco4)c3c2)cc(N2CC3CCC(C2)O3)c1,,human plasma,,< 0.0032
Nc1nnc(-c2cccc(Cl)c2Cl)c(N)n1,,mouse plasma,,0.374
CC(=O)CC(c1ccccc1)c1c(O)c2ccccc2oc1=O (stereo not drawn),rapid equilibrium dialysis,rat plasma,"2 µM, 6 h, pH 7.4",0.0083
Clc1cccc(Nc2ncnc3ccc(-c4cccc(N5CCOCC5)c4)cc23)c1,,human plasma,,0.0004
O=C(COc1ccc(N2C(=O)[C@@H]3[C@@H]4C=C[C@@H]([C@H]5C[C@@H]45)[C@@H]3C2=O)cc1)c1cc(Cl)cc(Cl)c1,equilibrium dialysis,culture medium,"5 µM, 6 h, pH 7.4",0.11
Cc1ccccc1CN1C(=O)C2=C(CCN(Cc3ccccc3)C2)N2CCN=C12,equilibrium dialysis,plasma,0.386 mg/L,0.0303
CO[C@H]1/C=C/O[C@@]2(C)Oc3c(C)c(O)c4c(c3C2=O)C2=NC3(CCN(CC(C)C)CC3)NC2=C(NC(=O)/C(C)=C\C=C\[C@H](C)[C@H](O)[C@@H](C)[C@@H](O)[C@@H](C)[C@H](OC(C)=O)[C@@H]1C)C4=O,,human plasma,,0.0383
COc1ccc([C@@H]2Sc3ccccc3N(CCN(C)C)C(=O)[C@@H]2OC(C)=O)cc1,rapid equilibrium dialysis,human plasma,"2 µM, 6 h, pH 7.4",0.246
CN1CCN(c2cccc(-c3ccc4ncnc(Nc5ccc(Cl)c(C(F)(F)F)c5)c4c3)c2)CC1,,human plasma,,< 0.0032
O=C(CS(=O)(=O)O)Nc1nc2ccccc2s1,equilibrium dialysis,mouse plasma,4.5 h,> 0.2
C[C@@H](O)[C@H](NC(=O)[C@H](Cc1ccc(O)cc1)NC(=O)[C@H](Cc1ccc(O)cc1)NC(=O)[C@H](CO)NC(=O)[C@H](CCCNC(=N)N)NC(=O)[C@H](Cc1c[nH]cn1)NC(=O)[C@@H](N)Cc1c[nH]c2ccccc12)C(=O)N[C@@H](Cc1c[nH]c2ccccc12)C(=O)N[C@@H](CC(N)=O)C(=O)NCCCC[C@H](NC(=O)[C@H](CC(N)=O)NC(=O)[C@H](Cc1c[nH]c2ccccc12)NC(=O)[C@@H](NC(=O)[C@H](Cc1ccc(O)cc1)NC(=O)[C@H](Cc1ccc(O)cc1)NC(=O)[C@H](CO)NC(=O)[C@H](CCCNC(=N)N)NC(=O)[C@H](Cc1c[nH]cn1)NC(=O)[C@@H](N)Cc1c[nH]c2ccccc12)[C@@H](C)O)C(=O)NCCCC[C@H](NC(=O)[C@H](CCCCNC(=O)[C@H](CC(N)=O)NC(=O)[C@H](Cc1c[nH]c2ccccc12)NC(=O)[C@@H](NC(=O)[C@H](Cc1ccc(O)cc1)NC(=O)[C@H](Cc1ccc(O)cc1)NC(=O)[C@H](CO)NC(=O)[C@H](CCCNC(=N)N)NC(=O)[C@H](Cc1c[nH]cn1)NC(=O)[C@@H](N)Cc1c[nH]c2ccccc12)[C@@H](C)O)NC(=O)[C@H](CC(N)=O)NC(=O)[C@H](Cc1c[nH]c2ccccc12)NC(=O)[C@@H](NC(=O)[C@H](Cc1ccc(O)cc1)NC(=O)[C@H](Cc1ccc(O)cc1)NC(=O)[C@H](CO)NC(=O)[C@H](CCCNC(=N)N)NC(=O)[C@H](Cc1c[nH]cn1)NC(=O)[C@@H](N)Cc1c[nH]c2ccccc12)[C@@H](C)O)C(=O)N[C@@H](CCCCN)C(=O)N[C@@H](CCCCN)C(=O)N[C@@H](CCCCN)C(N)=O,,human serum albumin,,0.05
COc1cc2c3c(n(CCCN4CCOCC4)c(=O)c2cc1OC)-c1cc2c(cc1C3=O)OCO2,equilibrium dialysis,"culture medium, 10% FBS","4300 ng/mL, 24 h",0.068
Cc1noc2c1-c1ccccc1C(c1ccc(Cl)cc1)=N[C@H]2CC(N)=O,equilibrium dialysis,mouse brain homogenate,"1 µM, 6 h, pH 7.4",0.0437 ± 0.0126
CN1CCN(c2cccc(-c3ccc4ncnc(Nc5ncco5)c4c3)c2)CC1,,human plasma,,0.062
CCCC[C@@H]1NC(=O)[C@H](Cc2ccc(O)cc2)NC(=O)[C@@H]2CCCN2C(=O)[C@H](CC(=O)O)NC(=O)[C@H](C)NC(=O)[C@H](Cc2ccccc2)NC(=O)[C@@H]2CSCCC(=O)N3CN(CN(C3)C(=O)CCSC[C@@H](C(=O)N[C@@H](C)C(N)=O)NC1=O)C(=O)CCSC[C@H](NC(C)=O)C(=O)N[C@@H](CC(C)(C)C)C(=O)N1CCC[C@H]1C(=O)N[C@@H](CCC(=O)O)C(=O)N[C@H](CCCCNC(=O)CCc1cn(CCOCCOCCOCCOCCOCCOCCOCCOCCOCCOCCNC(=O)c3cc(C(=O)NCCOCCOCCOCCOCCOCCOCCOCCOCCOCCOCCn4cc(CCC(=O)NCCCC[C@H]5NC(=O)[C@H](CCC(=O)O)NC(=O)[C@@H]6CCCN6C(=O)[C@H](CC(C)(C)C)NC(=O)[C@@H](NC(C)=O)CSCCC(=O)N6CN7CN(C6)C(=O)CCSC[C@H](NC(=O)[C@H](Cc6ccc(O)cc6)NC(=O)[C@@H]6CCCN6C5=O)C(=O)N[C@@H](Cc5ccccc5)C(=O)N[C@@H](C)C(=O)N[C@@H](CC(=O)O)C(=O)N5CCC[C@H]5C(=O)N[C@@H](Cc5ccc(O)cc5)C(=O)N[C@@H](CCCC)C(=O)N[C@H](C(=O)N[C@@H](C)C(N)=O)CSCCC7=O)nn4)cc(C(=O)NCCOCCOCCOCCOCCOCCOCCOCCOCCOCCOCCn4cc(CCC(=O)N[C@H]5CSCCC(=O)N6CN7CN(C6)C(=O)CCSC[C@H](NC(=O)[C@@H](CC(=O)O)NC(=O)[C@H](Cc6cccc8ccccc68)NC(=O)[C@@H]6CCCN6C5=O)C(=O)N[C@@H](CCSC)C(=O)N[C@@H](CCCCNC(=N)N)C(=O)N[C@@H](CC(=O)O)C(=O)N[C@@H](Cc5c[nH]c6ccccc56)C(=O)N[C@@H](CO)C(=O)N[C@@H]([C@@H](C)O)C(=O)N5CCC[C@H]5C(=O)N5C[C@H](O)C[C@H]5C(=O)N[C@@H](Cc5c[nH]c6ccccc56)C(=O)N[C@H](C(N)=O)CSCCC7=O)nn4)c3)nn1)C(=O)N1CCC[C@H]1C(=O)N[C@@H](Cc1ccc(O)cc1)C(=O)N2,ultracentrifugation,rat plasma,,0.18
CC(C)N1Cc2cc(C(F)(F)F)ncc2C2=CN=C(NCc3c(F)ccc4c3CCO4)N3C=NC(C1=O)C23 (stereo not drawn),,mouse plasma,,0.01
C/C(O)=C(\C#N)C(=O)Nc1ccc(C(F)(F)F)cc1,equilibrium dialysis,RPMI medium with 10% FBS,24 h,0.26 ± 0.016
NC/C(=C\F)COc1cccc(Cn2c(=S)[nH]c(=O)c3[nH]cnc32)c1,,human plasma,"10 µM, 5 (unit not given)",0.27
C=CC(=O)Nc1cc(Nc2nccc(-c3cn(C)c4ccccc34)n2)c(OCC(F)(F)F)nc1N(C)CCN(C)C,rapid equilibrium dialysis,human plasma,1 µg/mL,0.59% and 0.67% and 0.63%
CC(=O)Nc1nnc(N2CCN([C@@H](C)c3ccc4c(c3)OCO4)CC2)s1,,rat plasma,1 µM,0.098
Cc1cc(Nc2ccnc3ccc(-c4ccc(S(=O)(=O)N5CCOCC5)cc4)cc23)on1,,human plasma,,0.012
Cc1ccc(C(=O)Nc2ccnc(S(N)(=O)=O)c2)c(N2CCCC(F)(F)CC2)n1,,plasma,,6.6%
CC(C)(CO)c1cc2cc(NC(=O)C3(c4ccc5c(c4)OC(F)(F)O5)CC3)c(F)cc2n1C[C@@H](O)CO,rapid equilibrium dialysis,"human, plasma",6 h post-dose,0.006
CCNC(=O)OC1CCN(c2nncc3cc(OC)c(OC)cc23)CC1,equilibrium dialysis,human plasma,,0.148
CC(O)C(C)n1ncn(-c2ccc(N3CCN(c4ccc(OCC5COC(Cn6cncn6)(c6ccc(Cl)cc6Cl)O5)cc4)CC3)cc2)c1=O (stereo not drawn),equilibrium dialysis,human liver microsomes 0.025 mg/mL,,0.66 ± 0.12
CC#Cc1cncc(-c2ccc3c(c2)[C@@]2(N=C(C)C(N)=N2)[C@]2(CC[C@H](OC)CC2)C3)c1,equilibrium dialysis,mouse plasma,"6 h, pH 7.4",0.016
N#C[C@@]1(c2ccc3c(N)ncnn23)O[C@H](CO)[C@@H](O)[C@H]1O,,human plasma,10 µM,0.879
COc1ccccc1Oc1c(NS(=O)(=O)c2ccc(C(C)(C)C)cc2)nc(-c2ncccn2)nc1OCCO,,plasma,,0.029
CC(=O)Nc1ccc(O)cc1,rapid equilibrium dialysis,rat plasma,"2 µM, 6 h, pH 7.4",0.495
CC(F)(F)CN1Cc2cc(C(F)(F)F)ncc2C2=CN=C(NCc3c(F)ccc4c3CCO4)N3C=NC(C1=O)C23 (stereo not drawn),,human plasma,,< 0.01
C=CC(=O)Nc1cc(Nc2ncc(C(=O)OC(C)C)c(-c3cn(C)c4ccccc34)n2)c(OC)cc1N(C)CCN(C)C,equilibrium dialysis,rat plasma,"5 µM, 18 h, pH 7.4",0.32 ± 0.04
c1cc(-c2ccc3ncnc(Nc4ncco4)c3c2)cc(N2CC3(COC3)C2)c1,,human plasma,,0.013
C[C@H]1CNC(=O)c2cnn3ccc(nc23)N[C@H](C)c2cc(F)ccc2O1,equilibrium dialysis,cell medium with 10% FBS,,0.56
Cc1onc(-c2ccccc2Cl)c1C(=O)N[C@@H]1C(=O)N2[C@@H]1SC(C)(C)[C@@H]2C(=O)O,ultrafiltration,patient plasma,range over 9 samples,0.08 to 0.24
Cc1nnc(Nc2ccnc3ccc(-c4ccc(S(=O)(=O)N5CCOCC5)cc4)cc23)nc1C,,human plasma,,0.024
c1cc(-c2ccc3ncnc(NC4CCOCC4)c3c2)cc(N2CCOCC2)c1,,human plasma,,0.0029
CO[C@]1(C(=O)N[C@@H](C)c2ccc(-n3cc(F)cn3)nc2)CC[C@H](c2nc(C)cc(Nc3cc(C)[nH]n3)n2)CC1,,plasma,,0.032
COCC(=O)N1CCC[C@H](C(=O)NCc2nc(-c3ccc(C#N)cc3)cs2)C1,,mouse plasma,6 h,0.13
O=S(=O)(c1ccc(-c2ccc3nccc(Nc4cnccn4)c3c2)cc1)N1CCOCC1,,human plasma,,0.016
CC(=O)CC(c1ccccc1)c1c(O)c2ccccc2oc1=O (stereo not drawn),equilibrium dialysis,male Sprague Dawley rat plasma,"2 µM, 4 h, pH 7.4, 37 °C",0.0219
Cc1cc(Nc2ccnc3ccc(-c4ccc(S(=O)(=O)N5CCOCC5)cc4)cc23)sn1,,human plasma,,0.007
COCCc1ccc(OCC(O)CNC(C)C)cc1 (stereo not drawn),rapid equilibrium dialysis,rat plasma,"2 µM, 6 h, pH 7.4",0.815
O=S(=O)(c1ccc(-c2ccc3ncccc3c2)cc1)N1CCOCC1,,human plasma,,0.071
N#C[C@@]12C[C@@H]1[C@@H](n1cnc3c(N[C@@H](C4CCC4)C4CC4)nc(I)nc31)[C@H](O)[C@@H]2O,plasma protein binding,human plasma,,0.0138
